Results gathered from unrelated publications.
Protocols differ between the studies behind these lines. ± gives the spread as reported.

Compound | assay | system | conditions | how to read | measurement | result
Cc1ccc(/C=C/C(=O)O)cc1-c1cc2c(cc1C)C(C)(C)CCC2(C)C | RNA sequencing, item: Pdk4 | rat, brain | dose not given, 24 h | relative to: vehicle | log2 fold change | -0.04
CSCC[C@H](NC(=O)CNC(=O)[C@H](CC(=O)O)NC(=O)[C@@H](NC(=O)[C@@H](NC(=O)[C@@H](NC(=O)CNC(=O)[C@H](CCC(N)=O)NC(=O)[C@H](CCSC)NC(=O)[C@H](CC(=O)O)NC(=O)[C@H](C)NC(=O)[C@H](C)NC(=O)[C@@H](NC(=O)[C@H](CO)NC(=O)[C@@H](N)CC(C)C)[C@@H](C)O)C(C)C)C(C)C)[C@@H](C)O)C(=O)N[C@@H](C)C(=O)N[C@@H](CO)C(=O)NCC(=O)N[C@@H](CC(C)C)C(=O)N[C@@H](CC(=O)O)C(=O)N[C@@H](CCCCN)C(=O)N[C@@H](CC(=O)O)C(=O)N[C@@H](Cc1ccc(O)cc1)C(=O)N[C@@H](CC(C)C)C(=O)N[C@@H](CCCCN)C(=O)N1CCC[C@H]1C(=O)N[C@@H](CC(=O)O)C(=O)N[C@@H](CC(=O)O)C(=O)O | – | p53-positive advanced solid tumour patients | dose not given | – | median overall survival | 28 weeks
CC(C)C[C@H](NC(=O)[C@H](C)NC(=O)CNC(=O)[C@H](CO)NC(=O)CNC(=O)[C@H](CCCNC(=N)N)NC(=O)[C@H](CCCNC(=N)N)NC(=O)[C@H](CCCNC(=N)N)NC(=O)[C@H](CCC(N)=O)NC(=O)[C@H](CCCNC(=N)N)NC(=O)[C@H](CCCNC(=N)N)NC(=O)[C@H](CCCCN)NC(=O)[C@H](CCCCN)NC(=O)[C@H](CCCNC(=N)N)NC(=O)CNC(=O)[C@@H](N)Cc1ccc(O)cc1)C(=O)N[C@@H](CO)C(=O)N[C@H](C(=O)N[C@@H](CCC(=O)O)C(=O)N[C@@H](CCCNC(=N)N)C(=O)O)[C@@H](C)O | – | isolated rat heart | concentration not given, ischemia/reperfusion | – | JNK phosphorylation | decreased
C[C@H](NC(=O)[C@H](CCC(N)=O)NC(=O)[C@H](C)NC(=O)[C@H](CCCCN)NC(=O)[C@H](CCC(N)=O)NC(=O)[C@H](C)NC(=O)[C@H](CCCCN)NC(=O)[C@H](CCC(N)=O)NC(=O)[C@H](C)NC(=O)[C@H](CCC(N)=O)NC(=O)[C@H](CCCCN)NC(=O)[C@H](C)NC(=O)[C@H](CCC(N)=O)NC(=O)[C@H](CCCCN)NC(=O)[C@H](C)NC(=O)[C@H](CCC(N)=O)NC(=O)[C@H](C)NC(=O)[C@H](CCCCN)NC(=O)[C@H](CCC(N)=O)NC(=O)[C@H](C)NC(=O)[C@H](CCCCN)NC(=O)[C@H](CO)NC(=O)[C@H](Cc1ccc(O)cc1)NC(=O)CNC(=O)CNC(=O)CN)C(=O)N[C@@H](CCCCN)C(=O)N[C@@H](CCC(N)=O)C(=O)N[C@@H](C)C(=O)N[C@@H](CCCCN)C(=O)N[C@@H](CCC(N)=O)C(=O)O | – | human IAPP fibrils | 1 h, room temperature | relative to: 1 M NaCl over PBS | binding ratio | 0.26
C[C@]12CC[C@H](OC(=O)NC3CCNCC3)C[C@H]1CC[C@@H]1[C@@H]2CC[C@]2(C)[C@@H](c3ccc(=O)oc3)CC[C@]12O | – | mouse HepG2 xenograft | intravenous, 2 mg/kg every other day, 3 weeks | – | tumour mass decrease | 84.8%
CC(C)C[C@H](NC(=O)[C@H](C)N)C(=O)N[C@@H](CC(C)C)C(=O)N[C@@H](C)C(=O)N[C@@H](CC(N)=O)C(=O)N[C@@H](Cc1c[nH]cn1)C(=O)N[C@@H](CCC(=O)O)C(=O)N[C@@H](CCC(=O)O)C(=O)N[C@@H](CC(C)C)C(=O)N[C@@H](Cc1ccccc1)C(=O)N[C@@H](CCC(N)=O)C(=O)N[C@H](C(=O)NCC(=O)NCC(=O)NCC(=O)N[C@@H](CO)C(=O)N[C@@H](CSC1CC(=O)N(CCNC(=O)CCCCCN2C(=CC=C3CCCC(C=CC4=[N+](CCCCS(=O)(=O)[O-])c5ccc(S(=O)(=O)O)cc5C4(C)C)=C3Oc3ccc(S(=O)(=O)O)cc3)C(C)(C)c3cc(S(=O)(=O)O)ccc32)C1=O)C(=O)O)[C@@H](C)O (stereo partly drawn) | – | human liver FFPE sections | – | relative to: HCC over cirrhosis | fluorescence intensity ratio | 1.7 fold
CC[C@H](C)[C@H](NC(=O)[C@H](Cc1ccc(O)cc1)NC(=O)[C@@H]1CCCN1C(=O)[C@H](CCCNC(=N)N)NC(=O)[C@H](CCCNC(=N)N)NC(=O)[C@H](CO[C@@H]1O[C@H](CO[C@H]2O[C@H](CO)[C@H](O)[C@H](O)[C@H]2O)[C@@H](O)[C@H](O)[C@H]1O)NC(=O)[C@H](CCCCN)NC(=O)[C@H](CC(N)=O)NC(=O)[C@H](CCC(=O)O)NC(=O)[C@H](Cc1ccc(O)cc1)NC(=O)[C@H](CC(C)C)NC(=O)[C@@H]1CCC(=O)N1)C(=O)N[C@@H](CC(C)C)C(=O)O | 6 Hz seizure test | CF-1 mouse | intracerebroventricular, 30 min, 32 mA corneal stimulation | – | ED50 | 0.0004 nmol
CCN(CCCCOc1ccc(CCC(=O)N2CCC(Cc3ccccc3)CC2)cc1OC)Cc1ccccc1 | decrease, ELISA, item: IL-1β | APP/PS1 transgenic mice, cerebral cortex | dose not given | – | protein level | decreased
CC1=C(C(=O)Nc2ccc(F)cc2)C(c2ccccc2Br)NC(=S)N1 (stereo not drawn) | contraction, calcium channel antagonist | isolated rat ileum | together with: K+ 80 mM | – | IC50 | 22.6 ± 2.39 µg/mL
CC(C)C[C@@H]1NC(=O)[C@H](C(C)C)NC(=O)[C@H](CO)NC(=O)CNC(=O)CNC(=O)[C@H](CCCNC(=N)N)NC(=O)[C@@H]2CCCN2C(=O)[C@@H](NC(=O)CC[C@H](NC(=O)c2ccc(N(C)Cc3cnc4nc(N)nc(N)c4n3)cc2)C(=O)O)C(C)(C)SSC[C@@H](C(=O)O)NC(=O)CNC(=O)[C@H]([C@@H](C)O)NC(=O)[C@H](C(C)C)NC1=O | – | rat adjuvant arthritis | intravenous, 5 mg/kg once daily, day 14 | relative to: arthritis vehicle | liver weight increase suppression | 78%
NCCCC[C@H](NC(=O)CNC(=O)CNC(=O)[C@H](CCCCN)NC(=O)CNC(=O)CNC(=O)CNC(=O)[C@H](CCCCN)NC(=O)CNC(=O)CNC(=O)[C@H](CCCCN)NC(=O)CNC(=O)CNC(=O)CNC(=O)[C@H](CCCCN)NC(=O)CNC(=O)CNC(=O)[C@H](CCCCN)NC(=O)CNC(=O)CNC(=O)CNC(=O)[C@H](CCCCN)NC(=O)CNC(=O)CNC(=O)[C@H](CCCCN)NC(=O)[C@H](CO)NC(=O)[C@H](Cc1ccc(O)cc1)NC(=O)CNC(=O)CNC(=O)CN)C(=O)NCC(=O)O | – | human IAPP fibrils | 1 h, room temperature | relative to: 1 M NaCl over PBS | binding ratio | 0.12
CC[C@H](C)[C@H](NC(=O)[C@@H](NC(=O)[C@H](CC(=O)O)NC(C)=O)[C@@H](C)O)C(=O)N[C@@H](CCCNC(=N)N)C(=O)N[C@@H](CC(C)C)C(=O)N[C@@H](CC(C)C)C(=O)N[C@@H](Cc1ccccc1)C(=O)N[C@@H](CCC(N)=O)C(=O)N[C@@H](CC(C)C)C(=O)N[C@@H](CCSC)C(=O)N[C@@H](CCCNC(=N)N)C(=O)N1CCC[C@H]1C(=O)N1CCC[C@H]1C(=O)N[C@@H](CC(N)=O)C(=O)N[C@@H](CCSC)C(=O)N[C@H](C(=O)N1CCC[C@H]1C(=O)N[C@@H](C)C(=O)N[C@H](C(=O)N[C@@H](CC(N)=O)C(=O)N[C@@H](C)C(N)=O)C(C)C)[C@@H](C)O | item: HA-41 tetramer | antigen-experienced tetramer+ CD4 T cells, healthy adults, HLA-DRB1*0101 | dose not given | – | α4β7− CCR9− cells | 50%
CC[C@H](C)[C@H](NC(=O)[C@H](Cc1ccc(O)cc1)NC(=O)[C@H](CCCCN)NC(=O)[C@H](CCCCN)NC(=O)[C@H](CCC(N)=O)NC(=O)[C@H](C)N)C(=O)N[C@@H](CO)C(=O)N[C@@H](Cc1ccc(O)cc1)C(=O)NCC(=O)N[C@@H](C)C(=O)N[C@@H](CCSC)C(=O)N[C@@H](CCCNC(=N)N)C(=O)N[C@@H](CCCNC(=N)N)C(=O)N[C@@H](CC(N)=O)C(=O)N[C@@H](CO)C(=O)N[C@H](C(=O)N1CCC[C@H]1C(=O)N[C@H]1CSSC[C@@H](C(=O)N[C@@H](CCC(N)=O)C(=O)N[C@@H](CCCNC(=N)N)C(=O)NCC(=O)N[C@@H](C)C(=O)N[C@@H](CCC(N)=O)C(=O)N[C@@H](C)C(=O)N[C@@H](CC(N)=O)C(=O)N2CCC[C@H]2C(=O)N[C@@H](Cc2ccc(O)cc2)C(=O)N[C@@H](CO)C(=O)N[C@@H](CCCNC(=N)N)C(=O)NCC(=O)N[C@H]2CSSC[C@@H](C(=O)N[C@@H](CCCNC(=N)N)C(=O)N[C@@H](CCCNC(=N)N)C(=O)O)NC(=O)[C@H](CCCNC(=N)N)NC(=O)[C@H]([C@@H](C)O)NC(=O)[C@H]([C@@H](C)CC)NC(=O)[C@H]([C@@H](C)O)NC(=O)[C@H](CO)NC2=O)NC(=O)[C@H](CC(N)=O)NC(=O)[C@H](Cc2ccc(O)cc2)NC(=O)[C@H](Cc2ccc(O)cc2)NC(=O)[C@H](CO)NC(=O)[C@H](C)NC(=O)CNC(=O)[C@H](CCCNC(=N)N)NC(=O)[C@H](CCCNC(=N)N)NC(=O)[C@H](CO)NC1=O)C(C)C | FITC/TRITC dextran ratio | Arabidopsis thaliana Col-0, root hairs | 5 µM, 6 min | – | extracellular pH increase | 0.56 pH units
CC(C)[C@H](N)C(=O)N[C@@H](Cc1ccc(O)cc1)C(=O)N[C@@H](CCCCN)C(=O)N[C@H](C(=O)N[C@@H](CCCCN)C(=O)N[C@H](C(=O)N[C@@H](CCCCN)C(=O)N[C@H](C(=O)N[C@@H](CCCCN)C(=O)N[C@H](C(=O)N[C@@H](CCCCN)C(=O)N[C@H](C(=O)N[C@@H](CCCCN)C(=O)N[C@H](C(=O)N[C@@H](CCCCN)C(=O)N[C@H](C(=O)N[C@@H](CCCCN)C(=O)N[C@H](C(=O)O)[C@@H](C)O)C(C)C)[C@@H](C)O)C(C)C)[C@@H](C)O)C(C)C)[C@@H](C)O)C(C)C | – | Aβ(1-40) fibrils | 1 h, room temperature | relative to: 1 M NaCl over PBS | binding ratio | 0.21
C=C(NC(=O)C(=C)NC(=O)c1csc(C2=NC3c4csc(n4)C4NC(=O)c5csc(n5)C(C(C)(O)C(C)O)NC(=O)C5CSC(=N5)C(=CC)NC(=O)C(C(C)O)NC(=O)c5csc(n5)C3(CC2)NC(=O)C(C)NC(=O)C(=C)NC(=O)C(=C)NC(=O)C(C(C)CC)NC2C=Cc3c(C(C)O)cc(nc3C2O)C(=O)OC4C)n1)C(N)=O (stereo not drawn) | protein synthesis, coupled transcription-translation, item: luciferase | Escherichia coli S30 extract | 1 h, 37 °C | – | IC50 | 580 ± 30 nM
COc1ccc([N+](=O)[O-])cc1NC(=O)CCC(=O)[O][Zn][O]C(=O)CCC(=O)Nc1cc([N+](=O)[O-])ccc1OC.c1ccncc1 | antioxidant activity | – | 62.5 µg/mL | – | DPPH scavenging | 65 ± 1%
O=C(O)/C=C/c1ccc(O)cc1 | – | – | 500 µg/mL | – | DPPH radical scavenging | 76.1 ± 1.2%
Cc1cc(Nc2nc(C[C@@]3(C(=O)O)CCN(Cc4cccc(Cl)c4F)[C@H](C)C3)cc(C)c2F)[nH]n1 | – | mouse, IMR-32 neuroblastoma xenograft | oral, 10 mg/kg once daily | – | tumour growth inhibition | 102%

For quick reference, copied from above:
Compound | assay | system | conditions | how to read | measurement | result
CC[C@H](C)[C@H](NC(=O)[C@H](Cc1ccc(O)cc1)NC(=O)[C@H](CCCCN)NC(=O)[C@H](CCCCN)NC(=O)[C@H](CCC(N)=O)NC(=O)[C@H](C)N)C(=O)N[C@@H](CO)C(=O)N[C@@H](Cc1ccc(O)cc1)C(=O)NCC(=O)N[C@@H](C)C(=O)N[C@@H](CCSC)C(=O)N[C@@H](CCCNC(=N)N)C(=O)N[C@@H](CCCNC(=N)N)C(=O)N[C@@H](CC(N)=O)C(=O)N[C@@H](CO)C(=O)N[C@H](C(=O)N1CCC[C@H]1C(=O)N[C@H]1CSSC[C@@H](C(=O)N[C@@H](CCC(N)=O)C(=O)N[C@@H](CCCNC(=N)N)C(=O)NCC(=O)N[C@@H](C)C(=O)N[C@@H](CCC(N)=O)C(=O)N[C@@H](C)C(=O)N[C@@H](CC(N)=O)C(=O)N2CCC[C@H]2C(=O)N[C@@H](Cc2ccc(O)cc2)C(=O)N[C@@H](CO)C(=O)N[C@@H](CCCNC(=N)N)C(=O)NCC(=O)N[C@H]2CSSC[C@@H](C(=O)N[C@@H](CCCNC(=N)N)C(=O)N[C@@H](CCCNC(=N)N)C(=O)O)NC(=O)[C@H](CCCNC(=N)N)NC(=O)[C@H]([C@@H](C)O)NC(=O)[C@H]([C@@H](C)CC)NC(=O)[C@H]([C@@H](C)O)NC(=O)[C@H](CO)NC2=O)NC(=O)[C@H](CC(N)=O)NC(=O)[C@H](Cc2ccc(O)cc2)NC(=O)[C@H](Cc2ccc(O)cc2)NC(=O)[C@H](CO)NC(=O)[C@H](C)NC(=O)CNC(=O)[C@H](CCCNC(=N)N)NC(=O)[C@H](CCCNC(=N)N)NC(=O)[C@H](CO)NC1=O)C(C)C | FITC/TRITC dextran ratio | Arabidopsis thaliana Col-0, root hairs | 5 µM, 6 min | – | extracellular pH increase | 0.56 pH units
Cc1cc(Nc2nc(C[C@@]3(C(=O)O)CCN(Cc4cccc(Cl)c4F)[C@H](C)C3)cc(C)c2F)[nH]n1 | – | mouse, IMR-32 neuroblastoma xenograft | oral, 10 mg/kg once daily | – | tumour growth inhibition | 102%
